Published values of several laboratories.
U2AF2: U2AF2 148-342 (Homo sapiens, UniProt P26368)
Sequence of UniProt P26368 (whole entry, looked up): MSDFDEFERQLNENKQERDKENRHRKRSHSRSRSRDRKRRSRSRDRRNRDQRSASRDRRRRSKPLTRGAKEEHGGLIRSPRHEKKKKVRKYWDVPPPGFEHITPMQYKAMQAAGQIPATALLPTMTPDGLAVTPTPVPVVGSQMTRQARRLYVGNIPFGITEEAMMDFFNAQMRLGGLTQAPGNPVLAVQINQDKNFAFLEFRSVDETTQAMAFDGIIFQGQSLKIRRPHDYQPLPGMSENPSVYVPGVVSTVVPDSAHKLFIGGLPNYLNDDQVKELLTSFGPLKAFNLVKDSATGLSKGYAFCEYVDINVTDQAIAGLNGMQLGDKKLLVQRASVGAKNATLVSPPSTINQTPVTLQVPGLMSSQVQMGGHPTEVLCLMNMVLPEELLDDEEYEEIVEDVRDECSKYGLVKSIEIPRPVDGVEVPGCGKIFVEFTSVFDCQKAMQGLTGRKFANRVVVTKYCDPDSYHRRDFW
B1: cas1 1-324 (Pseudomonas aeruginosa, UniProt Q02ML7); chain MDDISPSELKTILHSKRANLYYLQHCRVLVNGGRVEYVTDEGRHSHYWNIPIANTTSLLLGTGTSITQAAMRELARAGVLVGFCGGGGTPLFSANEVDVEVSWLTPQSEYRPTEYLQRWVGFWFDEEKRLVAARHFQRARLERIRHSWLEDRVLRDAGFAVDATALAVAVEDSARALEQAPNHEHLLTEEARLSKRLFKLAAQATRYGEFVRAKRGSGGDPANRFLDHGNYLAYGLAATATWVLGIPHGLAVLHGKTRRGGLVFDVADLIKDSLILPQAFLSAMRGDEEQDFRQACLDNLSRAQALDFMIDTLKDVAQRSTVSA
B2: cooS 1-639 (Rhodospirillum rubrum, UniProt P31896); chain MTHHDCAHCSSDACATEMLNLAEANSIETAWHRYEKQQPQCGFGSAGLCCRICLKGPCRIDPFGEGPKYGVCGADRDTIVARHLVRMIAAGTAAHSEHGRHIALAMQHISQGELHDYSIRDEAKLYAIAKTLGVATEGRGLLAIVGDLAAITLGDFQNQDYDKPCAWLAASLTPRRVKRLGDLGLLPHNIDASVAQTMSRTHVGCDADPTNLILGGLRVAMADLDGSMLATELSDALFGTPQPVVSAANLGVMKRGAVNIAVNGHNPMLSDIICDVAADLRDEAIAAGAAEGINIIGICCTGHEVMMRHGVPLATNYLSQELPILTGALEAMVVDVQCIMPSLPRIAECFHTQIITTDKHNKISGATHVPFDEHKAVETAKTIIRMAIAAFGRRDPNRVAIPAFKQKSIVGFSAEAVVAALAKVNADDPLKPLVDNVVNGNIQGIVLFVGCNTTKVQQDSAYVDLAKSLAKRNVLVLATGCAAGAFAKAGLMTSEATTQYAGEGLKGVLSAIGTAAGLGGPLPLVMHMGSCVDNSRAVALATALANKLGVDLSDLPLVASAPECMSEKALAIGSWAVTIGLPTHVGSVPPVIGSQIVTKLVTETAKDLVGGYFIVDTDPKSAGDKLYAAIQERRAGLGL
B3: RAD52 1-418 K152A/R153A (Homo sapiens, UniProt P43351); chain MSGTEEAILGGRDSHPAAGGGSVLCFGQCQYTAEEYQAIQKALRQRLGPEYISSRMAGGGQKVCYIEGHRVINLANEMFGYNGWAHSITQQNVDFVDLNNGKFYVGVCAFVRVQLKDGSYHEDVGYGVSEGLKSKALSLEKARKEAVTDGLAAALRSFGNALGNCILDKDYLRSLNKLPRQLPLEVDLTKAKRQDLEPSVEEARYNSCRPNMALGHPQLQQVTSPSRPSHAVIPADQDCSSRSLSSSAVESEATHQRKLRQKQLQQQFRERMEKQQVRVSTPSAEKSEAAPPAPPVTHSTPVTVSEPLLEKDFLAGVTQELIKTLEDNSEKWAVTPDAGDGVVKPSSRADPAQTSDTLALNNQMVTQNRTPHSVCHQKPQAKSGSWDLQTYSADQRTTGNWESHRKSQDMKKRKYDPS
B4: FCY1 (yeast, UniProt Q12178); sequence looked up; chain MVTGGMASKWDQKGMDIAYEEAALGYKEGGVPIGGCLINNKDGSVLGRGHNMRFQKGSATLHGEISTLENCGRLEGKVYKDTTLYTTLSPCDMCTGAIIMYGIPRCVVGENVNFKSKGEKYLQTRGHEVVVVDDERCKKIMKQFIDERPQDWFEDIGE
B5: ddrC L131M/L184M (Deinococcus radiodurans, UniProt Q9RYE6); selenomethionine; sequence looked up; chain MKNAPLTLNFGSVRLPVSADGLLHAPTAQQQLGLTQSWEAALVEHGLPETYRDFGAGPEAAVSVPDFVALAFALDTPEARRWQKRARELLARAMQGDVRVAAQIAERNPEPDARRWLAARLESTGARRELMATVARHGGEGRVYGQLGSISNRTVLGKDSASVRQERGVKATRDGLTSAELLRMAYIDTVTARAIQESEARGNAAILTLHEQVARSERQSWERAGQVQRVG
B6: dlg1 1-97 Y18G (Drosophila melanogaster, UniProt P31007); sequence looked up; chain MPVKKQEAHRALELLEDGHARLSEPQDRALRIAIERVIRIFKSRLFQALLDIQEFYELTLLDDSKSIQQKTAETLQIATKWEKDGQAVKIADFIKSS
B7: SPOP R45W (Homo sapiens, UniProt O43791); sequence looked up; chain MSRVPSPPPPAEMSSGPVAESWCYTQIKVVKFSYMWTINNFSFCWEEMGEVIKSSTFSSGANDKLKWCLRVNPKGLDEESKDYLSLYLLLVSCPKSEVRAKFKFSILNAKGEETKAMESQRAYRFVQGKDWGFKKFIRRDFLLDEANGLLPDDKLTLFCEVSVVQDSVNISGQNTMNMVKVPECRLADELGGLWENSRFTDCCLCVAGQEFQAHKAILAARSPVFSAMFEHEMEESKKNRVEINDVEPEVFKEMMCFIYTGKAPNLDKMADDLLAAADKYALERLKVMCEDALCSNLSVENAAEILILADLHSADQLKTQAVDFINYHASDVLETSGWKSMVVSHPHLVAEAYRSLASAQCPFLGPPRKRLKQS
B8: CRYAA R157Q (Homo sapiens, UniProt P02489); sequence looked up; chain MDVTIQHPWFKRTLGPFYPSRLFDQFFGEGLFEYDLLPFLSSTISPYYRQSLFRTVLDSGISEVRSDRDKFVIFLDVKHFSPEDLTVKVQDDFVEIHGKHNERQDDHGYISREFHRRYRLPSNVDQSALSCSLSADGMLTFCGPKIQTGLDATHAEQAIPVSREEKPTSAPSS
B9: TRIM5 1-135 (Rhesus macaque, UniProt Q0PF16); sequence looked up; chain MASGILLNVKEEVTCPICLELLTEPLSLHCGHSFCQACITANHKKSMLYKEGERSCPVCRISYQPENIQPNRHVANIVEKLREVKLSPEEGQKVDHCARHGEKLLLFCQEDSKVICWLCERSQEHRGHHTFLMEE
B10: NINJ1 x (Homo sapiens, UniProt Q92982); sequence looked up; chain MDSGTEEYELNGGLPPGTPGSPDASPARWGWRHGPINVNHYASKKSAAESMLDIALLMANASQLKAVVEQGPSFAYYTTLVTLISISLVLQIVVGVLLIVLVKYDLNNPAKHAKLDQLNNAATILVFIIVVVNIFITAFGVQKPLMDMAPQQ
B11: human HSPA4; sequence looked up; chain MSVVGIDLGFQSCYVAVARAGGIETIANEYSDRCTPACISFGPKNRSIGAAAKSQVISNAKNTVQGFKRFHGRAFSDPFVEAEKSNLAYDIVQLPTGLTGIKVTYMEEERNFTTEQVTAMLLSKLKETAESVLKKPVVDCVVSVPCFYTDAERRSVMDATQIAGLNCLRLMNETTAVALAYGIYKQDLPALEEKPRNVVFVDMGHSAYQVSVCAFNRGKLKVLATAFDTTLGGRKFDEVLVNHFCEEFGKKYKLDIKSKIRALLRLSQECEKLKKLMSANASDLPLSIECFMNDVDVSGTMNRGKFLEMCNDLLARVEPPLRSVLEQTKLKKEDIYAVEIVGGATRIPAVKEKISKFFGKELSTTLNADEAVTRGCALQCAILSPAFKVREFSITDVVPYPISLRWNSPAEEGSSDCEVFSKNHAAPFSKVLTFYRKEPFTLEAYYSSPQDLPYPDPAIAQFSVQKVTPQSDGSSSKVKVKVRVNVHGIFSVSSASLVEVHKSEENEEPMETDQNAKEEEKMQVDQEEPHVEEQQQQTPAENKAESEEMETSQAGSKDKKMDQPPQAKKAKVKTSTVDLPIENQLLWQIDREMLNLYIENEGKMIMQDKLEKERNDAKNAVEEYVYEMRDKLSGEYEKFVSEDDRNSFTLKLEDTENWLYEDGEDQPKQVYVDKLAELKNLGQPIKIRFQESEERPKLFEELGKQIQQYMKIISSFKNKEDQYDHLDAADMTKVEKSTNEAMEWMNNKLNLQNKQSLTMDPVVKSKEIEAKIKELTSTCSPIISKPKPKVEPPKEEQKNAEQNGPVDGQGDNPGPQAAEQGTDTAVPSDSDKKLPEMDID

UAUUUAUUG (ssRNA)
Kd (U2AF2; sequencing of bound RNA; RNA; motif only): 7.12 µM

B1 (cas1 1-324)
binding (itself; cryo-EM): binds

human RGPD4
log2 fold change (CYB5R4 knockout human cells; PP6 interaction, 3xFLAG-PP6C IP-MS; concentration not given; relative to: CYB5R4 KO over parental): 0.49

B2 (cooS 1-639)
binding (itself; crystal structure): binds

B3 (RAD52 1-418 K152A/R153A)
binding (itself; mass photometry): binds

B4 (FCY1)
binding (itself; fluorescence titration): binds

UUUAACUCA (ssRNA)
Kd (U2AF2; sequencing of bound RNA; RNA; motif only): 2.31 µM

B5 (ddrC L131M/L184M)
binding (itself; X-ray crystallography; 20 °C, apo, homodimer in lattice): binds

B6 (dlg1 1-97 Y18G)
binding (itself; SEC): binds

B7 (SPOP R45W)
binding (itself; negative-stain TEM): binds

B8 (CRYAA R157Q)
binding (itself; SEC-MALS; 1 hour h, pH 7.4, 37 °C): binds

B9 (TRIM5 1-135)
binding (itself; AUC; sedimentation velocity): binds

B10 (NINJ1 x)
binding (itself; negative-stain EM): binds

B11 (human HSPA4)
log2 fold change (PP6C (human); co-immunoprecipitation, IP-MS; CYB5R4 knockout cells; concentration not given; relative to: CYB5R4 knockout over parental): -0.31

Some of these lines once more:
UUUAACUCA (ssRNA)
Kd (U2AF2; sequencing of bound RNA; RNA; motif only): 2.31 µM
